# Results from different studies.
# Each numbered part is a random draw from the data of one study; scales do not carry over between parts. “And” joins repeats or separate records; there may be more than shown.
# UniProt O15111, sequence (whole entry, looked up): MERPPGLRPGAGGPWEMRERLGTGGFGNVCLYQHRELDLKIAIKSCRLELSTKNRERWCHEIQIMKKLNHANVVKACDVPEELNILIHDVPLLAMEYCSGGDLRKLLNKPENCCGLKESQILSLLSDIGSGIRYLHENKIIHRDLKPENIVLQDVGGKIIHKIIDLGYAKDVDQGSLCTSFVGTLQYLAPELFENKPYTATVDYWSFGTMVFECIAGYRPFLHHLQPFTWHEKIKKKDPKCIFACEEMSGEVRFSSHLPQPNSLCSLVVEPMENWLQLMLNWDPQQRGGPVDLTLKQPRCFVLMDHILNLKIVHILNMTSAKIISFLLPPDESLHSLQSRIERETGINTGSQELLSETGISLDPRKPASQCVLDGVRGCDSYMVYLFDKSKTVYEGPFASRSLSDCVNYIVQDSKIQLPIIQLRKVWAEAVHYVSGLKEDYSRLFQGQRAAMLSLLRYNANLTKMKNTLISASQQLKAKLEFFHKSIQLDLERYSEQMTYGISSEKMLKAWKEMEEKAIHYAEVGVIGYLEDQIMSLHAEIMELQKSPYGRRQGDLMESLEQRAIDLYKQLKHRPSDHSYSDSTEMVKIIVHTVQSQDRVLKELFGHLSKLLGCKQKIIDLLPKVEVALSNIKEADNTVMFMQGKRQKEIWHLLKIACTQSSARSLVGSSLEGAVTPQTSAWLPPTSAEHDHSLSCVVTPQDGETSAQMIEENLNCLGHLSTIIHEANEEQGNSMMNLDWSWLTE
# UniProt Q13873, sequence (whole entry, looked up): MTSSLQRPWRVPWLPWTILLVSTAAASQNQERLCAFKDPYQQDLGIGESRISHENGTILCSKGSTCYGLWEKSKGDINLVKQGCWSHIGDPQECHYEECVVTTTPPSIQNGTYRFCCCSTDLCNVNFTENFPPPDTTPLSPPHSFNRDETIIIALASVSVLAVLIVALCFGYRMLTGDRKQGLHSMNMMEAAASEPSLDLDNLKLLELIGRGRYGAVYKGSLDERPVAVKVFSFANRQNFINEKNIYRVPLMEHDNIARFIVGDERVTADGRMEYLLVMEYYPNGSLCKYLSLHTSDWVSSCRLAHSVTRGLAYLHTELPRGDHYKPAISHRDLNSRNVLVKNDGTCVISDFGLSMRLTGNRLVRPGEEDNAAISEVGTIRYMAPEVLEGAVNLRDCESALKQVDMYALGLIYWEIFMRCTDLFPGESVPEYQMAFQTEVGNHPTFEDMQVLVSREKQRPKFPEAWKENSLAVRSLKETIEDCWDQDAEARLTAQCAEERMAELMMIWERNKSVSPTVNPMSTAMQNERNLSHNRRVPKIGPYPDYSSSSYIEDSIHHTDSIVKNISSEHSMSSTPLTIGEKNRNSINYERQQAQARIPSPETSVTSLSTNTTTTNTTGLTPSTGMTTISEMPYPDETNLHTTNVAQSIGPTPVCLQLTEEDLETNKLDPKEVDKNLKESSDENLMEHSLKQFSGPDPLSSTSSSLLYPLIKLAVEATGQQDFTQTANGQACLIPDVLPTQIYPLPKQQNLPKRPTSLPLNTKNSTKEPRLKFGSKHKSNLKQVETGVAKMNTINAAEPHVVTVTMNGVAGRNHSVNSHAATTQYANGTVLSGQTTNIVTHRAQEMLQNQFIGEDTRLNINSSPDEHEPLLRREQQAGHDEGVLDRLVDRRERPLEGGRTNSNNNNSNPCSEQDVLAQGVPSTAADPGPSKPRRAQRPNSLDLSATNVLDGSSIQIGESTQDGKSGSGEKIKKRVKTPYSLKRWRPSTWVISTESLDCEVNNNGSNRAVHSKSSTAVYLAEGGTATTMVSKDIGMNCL

# Set 1 — action: binding; method: isothermal titration calorimetry; temperature: 15 °C
# Target: Bromodomain-containing protein 4, BD1 (BRD4, Homo sapiens, UniProt O60885)
SMILES,TΔS
Cc1cnc(Nc2ccc(N3CCN(C)CC3)cc2)nc1Nc1cccc(S(=O)(=O)NC(C)(C)C)c1,1.95 kcal/mol
CC[C@@H]1C(=O)N(C)c2cnc(Nc3ccc(C(=O)N[C@H]4CC[C@H](N5CCN(CC6CC6)CC5)CC4)cc3OC)nc2N1C(C)C,0.85 kcal/mol
CC(C)CCN1c2nc(Nc3cc(F)c(O)c(F)c3)ncc2N(C)C(=O)C1C (stereo not drawn),-3.8 kcal/mol
Cc1cnc(Nc2ccc(OCCN3CCCC3)cc2)nc1Nc1cccc(S(=O)(=O)NC(C)(C)C)c1,3.65 kcal/mol

# Set 2 — observed: enzyme activity; action: inhibitor; concentration: 77 µM; relative to: untreated
# Target: DNA polymerase theta, ATPase domain (POLQ, Homo sapiens, UniProt O75417)
# UniProt O75417, sequence (whole entry, unmodified, looked up): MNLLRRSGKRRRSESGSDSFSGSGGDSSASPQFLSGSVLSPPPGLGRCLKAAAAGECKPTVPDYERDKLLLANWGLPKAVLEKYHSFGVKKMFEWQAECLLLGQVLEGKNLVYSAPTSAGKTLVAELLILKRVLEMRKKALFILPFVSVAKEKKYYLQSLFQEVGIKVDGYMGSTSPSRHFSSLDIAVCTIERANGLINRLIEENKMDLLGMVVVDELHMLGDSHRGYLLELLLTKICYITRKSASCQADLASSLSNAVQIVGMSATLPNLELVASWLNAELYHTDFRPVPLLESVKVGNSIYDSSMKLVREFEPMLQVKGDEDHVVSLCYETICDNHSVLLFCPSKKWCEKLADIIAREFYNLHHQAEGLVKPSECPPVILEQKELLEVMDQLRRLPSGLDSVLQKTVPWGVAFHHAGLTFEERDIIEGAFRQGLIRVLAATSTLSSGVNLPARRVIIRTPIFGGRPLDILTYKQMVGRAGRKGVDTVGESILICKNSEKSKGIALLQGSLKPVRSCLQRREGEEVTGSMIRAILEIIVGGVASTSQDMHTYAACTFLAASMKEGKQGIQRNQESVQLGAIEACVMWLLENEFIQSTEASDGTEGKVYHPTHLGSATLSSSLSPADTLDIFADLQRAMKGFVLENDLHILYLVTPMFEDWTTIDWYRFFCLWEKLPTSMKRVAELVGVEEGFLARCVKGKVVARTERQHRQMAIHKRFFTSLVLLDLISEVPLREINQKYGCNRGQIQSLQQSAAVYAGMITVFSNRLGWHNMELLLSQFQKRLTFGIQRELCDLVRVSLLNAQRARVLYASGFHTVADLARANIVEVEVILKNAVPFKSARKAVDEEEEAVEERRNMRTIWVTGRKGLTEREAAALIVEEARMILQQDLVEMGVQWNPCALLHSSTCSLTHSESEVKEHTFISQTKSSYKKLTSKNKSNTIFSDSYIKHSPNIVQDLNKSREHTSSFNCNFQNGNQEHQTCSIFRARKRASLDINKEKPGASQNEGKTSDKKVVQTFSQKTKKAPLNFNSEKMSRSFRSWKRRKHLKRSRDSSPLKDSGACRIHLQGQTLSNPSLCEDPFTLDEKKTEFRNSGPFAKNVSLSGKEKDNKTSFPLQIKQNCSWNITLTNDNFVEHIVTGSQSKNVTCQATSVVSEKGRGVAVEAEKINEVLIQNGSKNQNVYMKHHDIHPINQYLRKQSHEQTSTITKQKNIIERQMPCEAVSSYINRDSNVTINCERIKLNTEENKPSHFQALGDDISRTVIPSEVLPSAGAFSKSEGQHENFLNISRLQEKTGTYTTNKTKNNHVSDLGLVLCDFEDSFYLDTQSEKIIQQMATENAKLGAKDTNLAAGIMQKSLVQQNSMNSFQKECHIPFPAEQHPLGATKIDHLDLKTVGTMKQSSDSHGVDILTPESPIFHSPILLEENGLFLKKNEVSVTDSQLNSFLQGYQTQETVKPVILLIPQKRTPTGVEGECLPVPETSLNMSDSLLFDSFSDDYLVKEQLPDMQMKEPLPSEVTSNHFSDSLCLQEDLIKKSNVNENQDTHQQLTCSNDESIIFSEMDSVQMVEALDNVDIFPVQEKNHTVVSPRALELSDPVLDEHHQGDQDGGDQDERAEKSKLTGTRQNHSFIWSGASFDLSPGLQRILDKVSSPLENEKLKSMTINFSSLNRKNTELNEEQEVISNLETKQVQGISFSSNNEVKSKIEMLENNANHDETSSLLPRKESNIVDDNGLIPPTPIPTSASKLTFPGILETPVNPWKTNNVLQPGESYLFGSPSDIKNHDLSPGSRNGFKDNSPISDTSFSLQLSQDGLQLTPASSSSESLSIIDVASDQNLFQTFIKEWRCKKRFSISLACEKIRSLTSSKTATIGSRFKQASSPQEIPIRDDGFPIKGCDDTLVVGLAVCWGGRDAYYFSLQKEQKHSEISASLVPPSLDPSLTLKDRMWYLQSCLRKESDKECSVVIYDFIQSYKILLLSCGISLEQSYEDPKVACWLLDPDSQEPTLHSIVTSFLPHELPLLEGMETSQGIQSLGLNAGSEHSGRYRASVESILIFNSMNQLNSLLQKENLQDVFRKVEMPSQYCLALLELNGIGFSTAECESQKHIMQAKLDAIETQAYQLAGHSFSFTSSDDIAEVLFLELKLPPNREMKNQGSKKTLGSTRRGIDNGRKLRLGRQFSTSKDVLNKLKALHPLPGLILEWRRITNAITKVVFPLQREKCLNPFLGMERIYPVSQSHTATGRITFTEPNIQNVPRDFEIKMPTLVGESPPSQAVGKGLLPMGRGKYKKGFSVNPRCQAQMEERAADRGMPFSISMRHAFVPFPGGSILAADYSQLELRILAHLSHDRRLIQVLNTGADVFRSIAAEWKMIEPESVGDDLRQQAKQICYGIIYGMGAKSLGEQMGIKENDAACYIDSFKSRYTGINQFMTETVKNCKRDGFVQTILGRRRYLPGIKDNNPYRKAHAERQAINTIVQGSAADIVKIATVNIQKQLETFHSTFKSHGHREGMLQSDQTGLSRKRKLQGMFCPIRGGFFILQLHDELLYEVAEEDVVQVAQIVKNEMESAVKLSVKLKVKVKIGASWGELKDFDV
Structure (SMILES),remaining activity
CC(=O)NC1[C@@H](O)OC(CO)[C@@H](O)[C@H]1O[C@H](C)C(=O)O (stereo in doubt),98.4%
CCn1c(=O)c2c(nc(/C=C/c3ccc(OC)c(OC)c3)n2C)n(CC)c1=O,97%
COc1ccc(CCn2nnnc2C2(c3ccc(C)cc3)CC2)cc1,114%
CN[C@@H]1[C@H](O[C@H]2[C@H](O[C@H]3[C@H](O)[C@@H](O)[C@H](N=C(N)N)[C@@H](O)[C@@H]3N=C(N)N)O[C@@H](C)[C@]2(O)C=O)O[C@@H](CO)[C@H](O)[C@H]1O,88.8%
CN(C)[C@@H]1C(O)=C(C(N)=O)C(=O)[C@@]2(O)C(O)=C3C(=O)c4c(O)cccc4[C@@](C)(O)[C@H]3[C@H](O)[C@@H]12,100%
N=C(N)c1ccc(N)cc1,99.9%
CN(N=O)C(=O)N[C@@H](C=O)[C@@H](O)[C@H](O)[C@H](O)CO,105%
CCCCC(CC)CN1CN(CC(CC)CCCC)CC(C)(N)C1 (stereo not drawn),87.1%
NCCCCC(=O)O,90.7%
CN(C)/N=N/c1[nH]cnc1C(N)=O,94.3% and 110%
CC(=O)Oc1cccc2c1C(=O)c1c(OC(C)=O)cc(C(=O)O)cc1C2=O,60.6%
O=C(Nc1ccccc1)OCC(CN1CCCCC1)OC(=O)Nc1ccccc1 (stereo not drawn),102%
COc1ccc(-c2cc3c(C)nc(N)nc3n([C@H]3CC[C@H](OCCO)CC3)c2=O)cn1,99.2%

# Set 3 — observed: enzyme activity; action: inhibitor; concentration: 0.5 µM; relative to: control
# Target: LIM domain kinase 1 (LIMK1, Homo sapiens, UniProt P53667)
# UniProt P53667, sequence (whole entry, looked up): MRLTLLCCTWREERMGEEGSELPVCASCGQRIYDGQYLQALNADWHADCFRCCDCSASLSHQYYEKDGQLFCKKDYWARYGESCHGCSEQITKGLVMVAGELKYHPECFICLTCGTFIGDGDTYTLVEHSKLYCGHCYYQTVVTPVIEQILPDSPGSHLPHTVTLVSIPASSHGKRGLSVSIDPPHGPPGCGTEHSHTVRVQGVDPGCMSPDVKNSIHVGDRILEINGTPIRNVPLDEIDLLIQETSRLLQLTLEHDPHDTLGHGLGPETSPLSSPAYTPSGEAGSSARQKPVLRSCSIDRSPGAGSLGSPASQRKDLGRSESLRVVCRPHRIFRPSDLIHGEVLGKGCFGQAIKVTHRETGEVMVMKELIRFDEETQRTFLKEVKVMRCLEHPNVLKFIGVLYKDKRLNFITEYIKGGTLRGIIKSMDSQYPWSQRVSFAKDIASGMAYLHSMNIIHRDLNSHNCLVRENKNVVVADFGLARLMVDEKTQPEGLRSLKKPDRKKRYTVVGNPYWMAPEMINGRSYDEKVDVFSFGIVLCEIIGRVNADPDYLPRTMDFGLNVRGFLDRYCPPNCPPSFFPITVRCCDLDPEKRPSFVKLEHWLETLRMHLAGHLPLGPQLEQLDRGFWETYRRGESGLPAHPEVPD
SMILES,remaining activity [%]
O=C(c1ccccc1)c1ccc(N2CCOCC2)cc1O,83.9
O=C1NC(=O)/C(=C/c2ccc3c(c2)OC(F)(F)O3)S1,96.4
Nc1nc(Nc2ccc(S(N)(=O)=O)cc2)nn1C(=S)Nc1c(F)cccc1F,-0.611
NC(=O)c1ccc(-c2nc(-c3ccc4c(c3)OCCO4)c(-c3ccccn3)[nH]2)cc1,104
C[C@@H](N)[C@H]1CC[C@H](C(=O)Nc2ccncc2)CC1,85.8
CC(C)n1cnc2c(Nc3cccc(Cl)c3)nc(NCCO)nc21,105
COc1cc2c(Nc3ccc(Br)cc3F)ncnc2cc1OCC1CCN(C)CC1,88.1
COc1cc2c(N3CCN(C(=O)Nc4ccc(OC(C)C)cc4)CC3)ncnc2cc1OCCCN1CCCCC1,88.6
CCN(CC)CCCCN1c2ccccc2Oc2ccc(Cl)cc21,94.3
O=c1c(-c2ccc(F)cc2)c(-c2ccncc2)[nH]n1-c1ccc(Cl)cc1,91.5
O=C(O)/C=C/c1cc(Br)c(Br)c(Br)c1Br,101
CC(C)N(CCC(=O)c1ccc2ccccc2c1)Cc1ccccc1,103
c1cc(-c2cnn3cc(-c4ccc(OCCN5CCCCC5)cc4)cnc23)ccn1,66.4
FC(F)(F)c1ccc(/C=C/c2nc(COc3ccc(CCCCn4ccnn4)cc3)co2)cc1,99.2
O=Nc1c(-c2c(O)[nH]c3ccccc23)[nH]c2ccccc12,65.9
N#C/C(=C(/N)SC1C=CC=CC1)c1cccc(C(O)c2ccncc2)c1 (stereo not drawn),99.1
Clc1ccc(Nc2nnc(Cc3ccncc3)c3ccccc23)cc1,98.9
N#CC(c1ccnc(NCCc2cccnc2)n1)c1nc2ccccc2s1 (stereo not drawn),90.2
NC(=O)c1cccc(-c2cc(Nc3ccc(OC(F)(F)F)cc3)ncn2)c1,100
CC(C)(C)c1nc2c3cc[nH]c(=O)c3c3cc(F)ccc3c2[nH]1,73.7
O=C1c2ccccc2-c2nc3nnnn3nc21,65
CCCCc1c(-c2ccc(O)cc2)[nH]c2nccnc12,64.3
CNc1cc2c(Nc3cccc(Br)c3)ncnc2cn1,95.9

# Set 4 — observed: cell-free assay; method: competition with immobilised ligand; concentration: 1 µM
# Structure (SMILES): Cc1cc(-n2nc(Cc3cc(F)cc(C(F)(F)F)c3)nc2C)ccc1C(N)=O
target,remaining binding [%]
"Inhibitor of nuclear factor kappa-B kinase subunit alpha (CHUK, Homo sapiens, UniProt O15111)",100
"Ribosomal protein S6 kinase alpha-2, N-terminal kinase domain (RPS6KA2, Homo sapiens, UniProt Q15349)",100
"Epidermal growth factor receptor (EGFR, Homo sapiens, UniProt P00533, del746-750)",100
"Epidermal growth factor receptor (EGFR, Homo sapiens, UniProt P00533, L858R)",100
"Bone morphogenetic protein receptor type-2 (BMPR2, Homo sapiens, UniProt Q13873)",100
"Tyrosine-protein kinase ABL1, non-phosphorylated (ABL1, Homo sapiens, UniProt P00519, F317L)",100
"Epidermal growth factor receptor (EGFR, Homo sapiens, UniProt P00533, T790M)",94
"Receptor-type tyrosine-protein kinase FLT3 (FLT3, Homo sapiens, UniProt P36888, D835H)",100

# A few entries again (set 2):
Structure (SMILES),remaining activity
CCCCC(CC)CN1CN(CC(CC)CCCC)CC(C)(N)C1 (stereo not drawn),87.1%
O=C(Nc1ccccc1)OCC(CN1CCCCC1)OC(=O)Nc1ccccc1 (stereo not drawn),102%
COc1ccc(-c2cc3c(C)nc(N)nc3n([C@H]3CC[C@H](OCCO)CC3)c2=O)cn1,99.2%
CC(=O)NC1[C@@H](O)OC(CO)[C@@H](O)[C@H]1O[C@H](C)C(=O)O (stereo in doubt),98.4%
COc1ccc(CCn2nnnc2C2(c3ccc(C)cc3)CC2)cc1,114%
CN(N=O)C(=O)N[C@@H](C=O)[C@@H](O)[C@H](O)[C@H](O)CO,105%
N=C(N)c1ccc(N)cc1,99.9%
CN(C)[C@@H]1C(O)=C(C(N)=O)C(=O)[C@@]2(O)C(O)=C3C(=O)c4c(O)cccc4[C@@](C)(O)[C@H]3[C@H](O)[C@@H]12,100%
